Experimental data from different studies.
Numbered parts are unrelated; each lists some results of a single study.

Study 1
Target: RNA binding protein fox-1 homolog 2, RRM domain, GST-SBP tag (RBFOX2, Homo sapiens, UniProt O43251-10, residues 100-194)
Technique: RNA Bind-n-Seq
Molecule type: RNA
Medium: in vitro
Tested at: 365 nM
Setting: natural RNA segment, single round, ends assumed
Reference: no-protein control
Reading: higher = stronger binding
Residues (chain): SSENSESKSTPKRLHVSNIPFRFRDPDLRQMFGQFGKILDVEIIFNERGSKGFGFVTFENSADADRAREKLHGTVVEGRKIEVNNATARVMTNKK
Strand	RBNS enrichment (R)
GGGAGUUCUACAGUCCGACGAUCUCCUCCAGGACCUGGGAAGCAAAGGCACAGGCCCACGGUGGCCAGCCAUUGUGGUGCCGCCCCAGCUUCUGGAUACAGCCUUUUGGGUAAACACUGGGAACUCCAGAAGUUGGAAUUCUCGGGUGCCAA	0.24
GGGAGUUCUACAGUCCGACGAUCAAGCUCAUCUGAGUUUGACCAACAUGUUAGGCACUUACAAGAGCUGAAAUUUUUUUUUUAAUCACAGAAAGUUGAACCCUUCAACAAAUGUAAUAUUAAAAUUCCAAGUAUGGAAUUCUCGGGUGCCAA	0.298
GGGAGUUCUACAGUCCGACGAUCCAGCCACCUGCCUUUGAGUCAUCAAGAUGCCUCUGCAGCCACAAUUCUGACCUAAGUGGCAGGGCCCAGAAAUCCUGAAAACCUCCCGCUGCCUUUUGUGAUACUUCCUGUGGAAUUCUCGGGUGCCAA	0.862
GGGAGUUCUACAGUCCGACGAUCAAAACUGAAAGUGUGUGAUAUUUUUGUUGACGUUAUUUAUAAAAAUAUUUCAACGCUGUCAAUAAUUGUCUUUAACCUCCAAGUAGGUCUUGCAGAAUCGUCUUCAUUUCUGGAAUUCUCGGGUGCCAA	0.377
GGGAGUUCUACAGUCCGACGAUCUAAAUGCUAAAUUUUUGUCUUUUGCCUUUUUAAAGGAAUUGUUACCAUUGGAAUUGAGGGUAUGUACAGAGAAGUUGGUGUCAAUGCCAUUUAAUAAGUCAUAUUUUUUCUGGAAUUCUCGGGUGCCAA	0.59
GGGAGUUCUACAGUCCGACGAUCCACGAAGUCCCAAUCUACCCUUCCCUCAACCUCUUUCUCAAGGAGGAAACUCCCCACCUCACCCUGACAACCCUUGAUGUUUCCCAAAGUCUUUAGACAGCUGUGUGCAUUGGAAUUCUCGGGUGCCAA	0.906
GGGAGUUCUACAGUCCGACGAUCAGCCUGAAGUGACGUCCACAGAACCCGCCCUUGUCUUUGUACAUCGUAUGUACACUGCAAUCAUUUCAUACUUUUGACUGGUCAGAAAAAAAAAACUAAUUGUGAUUUCUUGGAAUUCUCGGGUGCCAA	1.44
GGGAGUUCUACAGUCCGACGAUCAUUUGUUAUGGAGCUGUGCUAAUUUCACUAUCAAAAUAUUUGUUGGAUGAAUAAAUGCUACGAAACGUUACUUAUUUUUUAAAAGGUUAUUAGACUUAUUUUAUUUUAUGUGGAAUUCUCGGGUGCCAA	0.546
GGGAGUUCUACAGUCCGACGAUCGGAGUUUCAACACCCCUGCUGUCCCUUUAACUUGUAUUGUCCUAGACCCUGUCCUGGAAGUUAGAGGACGUGGGGUAUUUUUUUUUUUGAUCUCUUGCCAGUUGUGAAUAUGGAAUUCUCGGGUGCCAA	0.606
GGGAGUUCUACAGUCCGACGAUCUGUUCUGGGGUGAGCGGGGAGCGCAUGCAGAGAUCCCAAGGCCUAUGUCUGGAGGGUACCAACUCCUCCAGCCUAGACCCCUGGCUUUGUCCAACACCAGCCCUGACCCAUGGAAUUCUCGGGUGCCAA	1.31
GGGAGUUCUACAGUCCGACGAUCAGUAUGAGCAAGACAUCUGAAGUACACAGUUGCUUUUAGGCUUGUAUAGUUAUUUUCUACACAUGCCAACACACAUGAUGAUAAAGGAACCUUUUCUAGGAGGCAUUGCAUGGAAUUCUCGGGUGCCAA	1.51
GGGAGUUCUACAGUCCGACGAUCACUCACUUUUUCUCAUCAGAGUCUCUCCUUGCCACAGCCCGGGUCACCAUCGGUUCCCUGGCCUCCCUCCGUGGUCCAGCACUGGCCCCAGUAUGCUGUGUAUGCAGCAGUGGAAUUCUCGGGUGCCAA	0.456

Study 2
Target: Interferon regulatory factor 5, full length, phosphomimetic (IRF5, Homo sapiens, UniProt Q13568-2, residues 1-514, S451D/S453D/S456D/S462D)
Technique: protein-binding microarray
Molecule type: double-stranded DNA, one strand shown
Medium: in vitro
Tested at: 940 nM top
Setting: 60-bp whole probe
Together with: salmon DNA 0.4 mg/ml
Reference: random background probes
Reading: higher = stronger binding
Constant ends, left off below: GCCTAGCAC … GTCTTGATTCGCTTGACGCTGCTG
Strand	fitted relative affinity [z-score]
GACGATTTCAGTATCGAGACGTGCTAG	2.69
TCATCTTCTCCTCTAGGACTGTGCTAG	0.255
TTGGATATCAGTTTCGATTAGTGCTAG	8.12
GACGAACTGAGTCTCGAGACGTGCTAG	0.791
TTATGTTTCGGACTGGGTTAGTGCTAG	3.2
TTAGGACTGCTTAGCCTTTAGTGCTAG	-0.663
TTAGGTTTCGTTCTCGGTTAGTGCTAG	10.8
GACGAACTGGGCTATCGAGACGTGCTA	-0.113
GACGGACTGCTTATCCTGGCGTGCTAG	-0.506
TTAGGTATCGGTCTCGGTTCGTGCTAG	10.1
CTGCCCTGGTTCCCCTGCCTGTGCTAG	-0.12
AAGTGTATATACTATATGCATGTGCTA	0.00384
TCATGTTTTTCATTATTACTGTGCTAG	1.32
TTCCAATTCTTTTTATGCTTGTGCTAG	2.08
TTAGATTTCAGTTCCGCTTAGTGCTAG	1.72
TTAGATCTCAGACTGGATTTGTGCTAG	-0.376
GCCGATTTCAGTATCGAGACGTGCTAG	3
TTAGGTTTCGGTATCCGTTAGTGCTAG	15.6
TTAGGTATCGGGTCTCGGTTAGTGCTA	6.37
GACGAATTGAGTTTCGAGACGTGCTAG	3.98
CGAGATCTCCGAGATGCCTTCGTGCTA	-0.299
CACGGTTTCGGACTGGGGACGTGCTAG	5.52
TCAGTTTACATTTTCCAACTGTGCTAG	0.807

Study 3
Target: Prothrombin, mature alpha-thrombin (F2, Homo sapiens, UniProt P00734)
Technique: aptamer microarray, sandwich
Molecule type: DNA with 2'F-ANA
Medium: in vitro
Tested at: 200 nM
Setting: whole 15-mer aptamer, many near background
Together with: Cy3 exosite-II aptamer, 400 nM
Reading: higher = stronger binding
Strand: GGTTGGTGTGGTTGG
Modification	mean fluorescence intensity
2'F-ANA at 1 2 4 5 6 7 9 10 14	50.3 a.u.
2'F-ANA at 2 3 4 11	575 a.u.
2'F-ANA at 1 2 3 4 6 9 12	305 a.u.
2'F-ANA at 3 4 5 7 9 11 12 13 14 15	72.8 a.u.
2'F-ANA at 1 2 5 6 8 10 11 14	61 a.u.
2'F-ANA at 1 4 5 8 11 13 14	48.6 a.u.
2'F-ANA at 4 7 11 12 14 15	112 a.u.
2'F-ANA at 5 6 7 9 11 12 13	82.3 a.u.
2'F-ANA at 1 5 8 9 12 13	83.2 a.u.
2'F-ANA at 1 2 3 5 6 8 9 10 11 13 14	53.9 a.u.
2'F-ANA at 1 2 4 6 7 9 10 11 13	62.7 a.u.
2'F-ANA at 1 4 5 6 11 14	48.9 a.u.
2'F-ANA at 3 4 6 7 8 10 14	195 a.u.
2'F-ANA at 3 6 8 11 15	876 a.u.
2'F-ANA at 6 8 11	479 a.u.
2'F-ANA at 4 5 6 8 13 14	43.8 a.u.
2'F-ANA at 3 4 5 6 8 9 10 14	46.3 a.u.
2'F-ANA at 1 2 5 8 10 11 14	43.5 a.u.
2'F-ANA at 2 4 5 6 9 10 11	89.3 a.u.

Study 4
Target: Protein C-ets-1 (ETS1, Homo sapiens, UniProt P14921, residues 1-441, full length assumed)
Technique: protein-binding microarray
Molecule type: double-stranded DNA, one strand shown
Medium: in vitro
Tested at: not given
Setting: k-mer, scored over probes, only values ≥0.25
Reading: higher = stronger binding
Residues (chain): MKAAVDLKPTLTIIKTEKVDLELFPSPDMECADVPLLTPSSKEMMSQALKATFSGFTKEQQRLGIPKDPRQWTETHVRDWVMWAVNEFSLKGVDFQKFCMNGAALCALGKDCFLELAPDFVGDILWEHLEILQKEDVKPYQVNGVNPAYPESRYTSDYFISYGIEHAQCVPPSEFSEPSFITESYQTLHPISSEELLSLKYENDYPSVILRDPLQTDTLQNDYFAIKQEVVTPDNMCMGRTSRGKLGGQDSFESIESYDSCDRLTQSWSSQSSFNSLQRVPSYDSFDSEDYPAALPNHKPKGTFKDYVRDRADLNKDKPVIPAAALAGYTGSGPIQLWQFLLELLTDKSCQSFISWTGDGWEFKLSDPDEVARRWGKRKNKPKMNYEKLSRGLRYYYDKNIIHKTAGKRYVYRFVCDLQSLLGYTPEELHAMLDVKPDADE
Strand	E-score
CGGAAAGC	0.37
CCGGGGAA	0.352
TACTGGAA	0.273
ATACACCC	0.256
GGAACTGA	0.339
CGGAATTC	0.334
CGAGGAAG	0.388
CATCTTCC	0.314
TAACAGGA	0.325
ATCCGTTC	0.409
CGGAAATA	0.475
CCACGGGG	0.252
ACATCCCA	0.251
CCAACCGG	0.279
AGGATGTC	0.426
CTTCCGCC	0.482
ACCTCCGG	0.43
CCGGTTCG	0.296
CGGAACTA	0.401

Study 5
Target: Sal-like protein 4, full length isoform A (SALL4, Homo sapiens, UniProt Q9UJQ4, residues 1-1053)
Sequence of UniProt Q9UJQ4 (whole entry, looked up): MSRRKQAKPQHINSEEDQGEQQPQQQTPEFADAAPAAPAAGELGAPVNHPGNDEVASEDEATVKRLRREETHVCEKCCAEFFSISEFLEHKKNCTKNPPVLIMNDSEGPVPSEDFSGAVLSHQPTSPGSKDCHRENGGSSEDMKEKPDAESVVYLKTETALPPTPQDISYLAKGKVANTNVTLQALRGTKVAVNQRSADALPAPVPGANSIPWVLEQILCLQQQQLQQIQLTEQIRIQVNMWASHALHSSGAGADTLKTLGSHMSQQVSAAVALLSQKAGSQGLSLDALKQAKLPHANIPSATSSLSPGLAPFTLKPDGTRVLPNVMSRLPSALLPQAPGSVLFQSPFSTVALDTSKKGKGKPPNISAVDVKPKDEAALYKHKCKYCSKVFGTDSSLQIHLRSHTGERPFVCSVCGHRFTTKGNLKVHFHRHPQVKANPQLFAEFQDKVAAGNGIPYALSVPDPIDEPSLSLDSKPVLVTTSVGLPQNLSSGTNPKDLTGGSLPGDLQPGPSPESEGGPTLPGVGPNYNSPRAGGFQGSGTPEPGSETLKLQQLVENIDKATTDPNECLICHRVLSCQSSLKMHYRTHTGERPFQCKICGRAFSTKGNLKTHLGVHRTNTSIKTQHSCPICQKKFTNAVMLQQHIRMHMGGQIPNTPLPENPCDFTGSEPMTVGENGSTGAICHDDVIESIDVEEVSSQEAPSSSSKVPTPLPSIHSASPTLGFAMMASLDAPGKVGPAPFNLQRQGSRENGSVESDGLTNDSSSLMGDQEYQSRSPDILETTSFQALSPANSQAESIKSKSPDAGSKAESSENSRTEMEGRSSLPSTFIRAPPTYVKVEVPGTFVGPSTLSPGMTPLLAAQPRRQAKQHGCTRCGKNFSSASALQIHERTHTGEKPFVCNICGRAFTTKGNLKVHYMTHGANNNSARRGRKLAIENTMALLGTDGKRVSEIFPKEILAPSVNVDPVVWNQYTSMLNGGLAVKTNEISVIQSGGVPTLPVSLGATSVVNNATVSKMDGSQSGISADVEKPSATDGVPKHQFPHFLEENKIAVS
Technique: universal PBM
Molecule type: double-stranded DNA, one strand shown
Medium: in vitro
Tested at: 600 nM
Setting: 8-mer, flanks averaged, mean of replicates
Reading: higher = stronger binding
Strand	E-score
CAAAGTAC	0.021
CCCTAGCG	-0.296
AGGTCTAT	0.0881
ATCTGTCG	-0.0101
CAGCAACA	0.106
CAAAACGG	0.0751
AGCTGACC	-0.156
ATGAAAGA	0.174
GAAAACTA	0.085
CGTTTGCC	-0.166
AACTTAAC	0.231
GGATCAAC	0.0668
AAGAGGAA	0.114
AGGAGGAA	0.0615
GGAACCAA	-0.219
ATTCAGCG	-0.0339
CCCAAAAC	0.0869
AGGAGTCG	-0.175
GGGGGCGA	-0.291
ACCAGCTC	-0.159

Excerpt of the above (study 4):
Strand	E-score
CGGAAATA	0.475
CATCTTCC	0.314
CGGAAAGC	0.37
ACCTCCGG	0.43
ACATCCCA	0.251
CCGGGGAA	0.352
ATACACCC	0.256
CGGAACTA	0.401
